Assay results from different studies.
Numbered parts are unrelated; each lists some results of a single study. Substitutions count along the parent as printed.

Sample 1
Target: Fragile X messenger ribonucleoprotein 1, C-terminal low-complexity region (Fmr1, Mus musculus, UniProt P35922)
Technique: RNA Bind-n-Seq
Molecule type: RNA
Medium: in vitro
Tested at: 200 nM
Notes: whole 134-nt RNA, ends assumed
Together with: 150 mM LiCl
Reference: input library
Reading: higher = stronger binding
Library: 7-deaza-guanosine replaces G
All sequences stand within: GGGAGUUCUACAGUCCGACGAUC … UGGAAUUCUCGGGUGUCAAGG
Oligonucleotide	log2 enrichment
GCAGGAAGUAAAAACAAAUGGAAAUGCUUCGGAUAGUGGCAGGAAAGGGGGUUGCUAAGGAAAGGGUGGGAUGGGAGUGGGUAAAGAGUU	1.51
CUGUGCUACACAUCGUAUGUACCGAAUCGGGGAAAAAAAGGGGAAAGGGGAAAAAAAGGGGAAAGUAUUAUGUUACGCCGUUCGGAUCUG	1.38
UUGCUAAUCUAUAAAUUUUUUUUAUAUGAAAUAGCUCAUAGUCGGAAGCCGGCACCCUCAAAUGAGCCCGAAUAUCUAUGUAAAUGGAUG	-3.6
AGUCCUGUGCUACACAUCGUAUGUACCGAAUCGGGGAGGGGAAAAAAAGGGGAGGGGAAAGUAUUAUGUUACGCCGUUCGGAUCUGCACU	0.0411
AGUCCUGUGCUACACAUCGUAUGUACCGAAUCAAACCCAAAUUUUUAAAUUUUUAAAAAAGUAUUAUGUUACGCCGUUCGGAUCUGCACU	-1.47
AGUCCUGUGCUACACAUCGUAUGUACCGAAUCGGGGCCCCCGGCCCCCGGGCCCCCGGAAAGUAUUAUGUUACGCCGUUCGGAUCUGCAC	-2.89

Sample 2
Target: Interferon regulatory factor 7, full length, phosphomimetic (IRF7, Homo sapiens, UniProt Q92985, residues 1-503, S101K/S471D/S472D/S475D/S476D/S477D/S483D/S484D/S487D)
Technique: protein-binding microarray
Molecule type: double-stranded DNA, one strand shown
Medium: in vitro
Tested at: 250 nM
Notes: 60-bp whole probe
Together with: salmon DNA 0.4 mg/ml
Reference: random background probes
Reading: higher = stronger binding
All sequences stand within: GCCTAGCAC … GTCTTGATTCGCTTGACGCTGCTG
Residues (chain): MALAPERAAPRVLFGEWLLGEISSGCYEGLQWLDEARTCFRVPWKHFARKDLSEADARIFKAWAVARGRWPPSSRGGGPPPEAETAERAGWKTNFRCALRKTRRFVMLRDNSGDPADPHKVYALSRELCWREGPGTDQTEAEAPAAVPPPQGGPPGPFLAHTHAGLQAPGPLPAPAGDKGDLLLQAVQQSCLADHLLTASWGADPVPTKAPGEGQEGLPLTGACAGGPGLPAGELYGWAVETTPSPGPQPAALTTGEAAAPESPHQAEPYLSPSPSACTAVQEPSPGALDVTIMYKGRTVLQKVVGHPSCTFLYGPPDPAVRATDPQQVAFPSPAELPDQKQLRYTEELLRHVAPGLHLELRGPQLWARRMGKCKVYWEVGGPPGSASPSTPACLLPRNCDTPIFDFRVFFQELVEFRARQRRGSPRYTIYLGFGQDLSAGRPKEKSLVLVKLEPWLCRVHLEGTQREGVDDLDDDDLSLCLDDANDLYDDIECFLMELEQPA
Oligonucleotide	log fluorescence [z-score]
GACGGTATCGACTATCGCGACGTGCTA	-0.369
TTAGTTATCGGGACTGGGTTAGTGCTA	0.281
GACGGACTGGTACTGGGGACGTGCTAG	-0.448
GACGATATCGGGTTACGAGACGTGCTA	0.22
GACGTTCTCCTTTTCCTGACGTGCTAG	1.49
GACGATTTCGGGACTGGAAACGTGCTA	0.395

Sample 3
Target: ABI1, truncated, D143A, DHFR fusion (Arabidopsis thaliana)
Technique: DHFR PCA, deep sequencing
Medium: yeast
Notes: methotrexate growth selection, single substitutions
Together with: (+)-ABA 2500 µM
Reference: wild-type fitted maximum
Reading: higher = stronger binding
Starting sequence: PYL1, truncated, DHFR fusion (Arabidopsis thaliana); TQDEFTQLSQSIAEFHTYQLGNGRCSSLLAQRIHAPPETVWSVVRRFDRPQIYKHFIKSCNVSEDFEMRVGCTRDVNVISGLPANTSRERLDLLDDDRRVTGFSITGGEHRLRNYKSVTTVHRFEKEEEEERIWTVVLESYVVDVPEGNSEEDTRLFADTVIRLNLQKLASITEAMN; partner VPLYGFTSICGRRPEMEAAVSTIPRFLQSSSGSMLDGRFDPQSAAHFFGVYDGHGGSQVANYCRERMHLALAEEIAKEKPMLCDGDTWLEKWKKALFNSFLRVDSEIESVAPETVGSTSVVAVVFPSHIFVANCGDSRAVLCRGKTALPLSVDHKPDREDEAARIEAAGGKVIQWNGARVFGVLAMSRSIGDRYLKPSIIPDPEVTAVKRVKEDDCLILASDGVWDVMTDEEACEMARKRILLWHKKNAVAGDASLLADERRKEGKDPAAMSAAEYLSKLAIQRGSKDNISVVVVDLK
Change	relative binding score
E127D	102%
F124D	108%
K116P	-6.69%
R123S	104%
R98H	109%
C60A	91.4%

Mixed results
Substance	target	test	test system	setting	how to read	quantity	value
PhoQ, residues 284 288 289 292 302 303 SLGVVW	PhoP, residues 12 14 15 18 19 LHSVQ (Escherichia coli, UniProt P23836)	Sort-seq, item: YFP reporter	E. coli	PhoQ-PhoP variant library, together with: 10 µM Mg2+	reference: high Mg2+ state, higher = stronger signaling	fold induction	13.6

Some of these lines once more (sample 2):
Oligonucleotide	log fluorescence [z-score]
GACGATTTCGGGACTGGAAACGTGCTA	0.395
TTAGTTATCGGGACTGGGTTAGTGCTA	0.281
